Assay results gathered from unrelated publications.
Compare with care: the assays were run in different laboratories. ± marks the error that the study gave.

SMILES = CCCCCCCC(=O)OC[C@H](NC(=O)[C@H](CO)NC(=O)CN)C(=O)N[C@@H](Cc1ccccc1)C(=O)N[C@@H](CC(C)C)C(=O)N[C@@H](CO)C(=O)N1CCC[C@H]1C(=O)N[C@@H](CCC(=O)O)C(=O)N[C@@H](Cc1cnc[nH]1)C(=O)N[C@@H](CCC(N)=O)C(=O)N[C@@H](CCCNC(=N)N)C(=O)N[C@H](C(=O)N[C@@H](CCC(N)=O)C(=O)N[C@@H](CCC(N)=O)C(=O)N[C@@H](CCCNC(=N)N)C(=O)N[C@@H](CCCCN)C(=O)N[C@@H](CCC(=O)O)C(=O)N[C@@H](CO)C(=O)N[C@@H](CCCCN)C(=O)N[C@@H](CCCCN)C(=O)N1CCC[C@H]1C(=O)N1CCC[C@H]1C(=O)N[C@@H](C)C(=O)N[C@@H](CCCCN)C(=O)N[C@@H](CC(C)C)C(=O)N[C@@H](CCC(N)=O)C(=O)N1CCC[C@H]1C(=O)N[C@@H](CCCNC(=N)N)C(=O)O)C(C)C; test system = patients with chronic HFrEF; conditions = iv infusion, 0.1 µg/kg/min, 30 min after end of infusion, scale 1-10, median; scale = direction not given; endpoint = thirst score; value = 5
SMILES = Cc1cc2c(cc1C1(c3ncc(C(=O)O)cn3)CC1)C(C)(C)CCC2(C)C; test system = Sprague-Dawley rat, male, plasma; conditions = oral, 100 mg/kg, 9 h, sesame oil vehicle; endpoint = LDL level; value = 7 ± 2.1 mg/dL
SMILES = C/C=C/CNC(=N)NCCCCCCCCN1CCCc2ccc(F)cc2COc2ccccc2CNC(=N)NC1=O; assay = PAMPA; test system = egg phosphatidylcholine in dodecane; conditions = 500 µM, 5 h, pH 7.4, room temperature; endpoint = membrane retention; value = 50.6%
SMILES = COc1cc(NC(C)=O)c2c(c1O)-c1c(OC)c(OC)cc3c1C(C2)N(C)CC3 (stereo not drawn); test system = rat, plasma; conditions = 5 µg/mL, 4 h, room temperature, short-term storage; endpoint = remaining compound; value = 102 ± 3.4%
SMILES = COC(=O)C(c1ccccc1Cl)N1CCC(SCC(=O)c2cccc(OC)c2)C(=CC(=O)O)C1 (mixture of isomers); assay = HPLC-MS/MS; test system = feline EDTA plasma; conditions = 100 ng/mL, 24 h, 4 °C, storage stability; endpoint = deviation from nominal; value = 7%
SMILES = CC(C)[C@H](NC(=O)[C@@H]1CCCN1C(=O)[C@H](CCCNC(=N)N)NC(=O)[C@H](CS)NC(=O)[C@H](Cc1c[nH]c2ccccc12)NC(=O)[C@H](CCCNC(=N)N)NC(=O)[C@@H](Cc1ccccc1)NC(=O)[C@H](Cc1c[nH]cn1)NC(=O)[C@H](CCC(=O)O)NC(=O)[C@H](CS)NC(=O)[C@H](CS)NC(=O)CNC(=O)[C@@H]1CC(=O)N[C@@H](CCCNC(=N)N)C(=O)NCC(=O)N[C@@H](CC(=O)O)C(=O)N[C@H](Cc2ccc(O)cc2)C(=O)N1)C(N)=O [technetium-99m labelled]; test system = C57 mouse, female, B16/F1 melanoma; conditions = intravenous, 0.037 MBq, 4 h; scale = reference: tumour over kidneys; endpoint = tumour to tissue ratio; value = 0.54
SMILES = Cn1c(=O)oc2ccc(-c3ccc(CC(C#N)NC(=O)C4CNCCCO4)c(F)c3)cc21 (stereo not drawn); assay = refers to: skin exfoliation; test system = human; conditions = 15 mg single dose, fasted; endpoint = subjects with TEAE; value = 0%
SMILES = CC[C@H](C)[C@H](NC(=O)[C@H](N)Cc1ccc(O)cc1)C(=O)N[C@H]1CSSC[C@@H](C(=O)N(C)[C@H](C(N)=O)[C@@H](C)CC)NC(=O)[C@H](CCCNC(=N)N)NC(=O)[C@H](Cc2c[nH]cn2)NC(=O)[C@H](C)NC(=O)CN(C)C(=O)[C@H](Cc2c[nH]c3ccccc23)NC(=O)[C@H](CC(=O)O)NC(=O)[C@H](CCC(N)=O)NC(=O)[C@H](Cc2cn(C)c3ccccc23)NC(=O)[C@H](C(C)C)NC1=O; assay = UPLC-ESI-MS; test system = human plasma; conditions = 3.58 µg/mL, 24 h, 4 °C, autosampler after SPE; endpoint = recovery; value = 99.4 ± 0.2%
SMILES = CC1C(c2c(F)ccc(F)c2F)CC(N[14C](=O)c2cnc3c(c2)CC2(C3)C(=O)Nc3ncccc32)C(=O)N1CC(F)(F)F (stereo not drawn); test system = healthy male human; conditions = 50 mg, single dose; endpoint = tolerability; value = not toxic
SMILES = CC(=O)N[C@@H](CCC(N)=O)C(=O)N[C@@H](CCC(N)=O)C(=O)N[C@@H](CCCCN)C(=O)N[C@@H](Cc1ccccc1)C(=O)N[C@@H](CCC(N)=O)C(=O)N[C@@H](Cc1ccccc1)C(=O)N[C@@H](CCC(N)=O)C(=O)N[C@@H](Cc1ccccc1)C(=O)N[C@@H](CCC(=O)O)C(=O)N[C@@H](CCC(N)=O)C(=O)N[C@@H](CCC(N)=O)C(N)=O; assay = negative-stain TEM; test system = 1× PBS; conditions = 0.2 mM; endpoint = nanofiber width; value = 9.18 ± 1.67 nm
SMILES = Cc1noc(C)c1Cn1cc(N2C(=O)CN(Cc3cccc(OS(=O)(=O)O)c3)C2=O)cn1; test system = rat Sprague-Dawley male, plasma; conditions = oral, 10 mg/kg of parent drug; endpoint = AUC(0-last); value = 18200 ng·h/mL
SMILES = CC[C@H](C)[C@H](NC(=O)[C@H](CCCCN)NC(=O)[C@H](CS)NC(=O)[C@H](CC(N)=O)NC(=O)[C@H](C)NC(=O)[C@H](CCCNC(=N)N)NC(=O)[C@H](CCCNC(=N)N)NC(=O)[C@H](CC(N)=O)NC(=O)[C@H](CCCNC(=N)N)NC(=O)[C@H](CCCNC(=N)N)NC(=O)[C@H](C)NC(=O)[C@H](CS)NC(=O)[C@H](CO)NC(=O)[C@@H](NC(=O)[C@@H](NC(=O)[C@H](CS)NC(=O)[C@H](CCCCN)NC(=O)[C@@H](N)CCCNC(=N)N)C(C)C)[C@@H](C)CC)C(=O)N[C@@H](CC(C)C)C(=O)N[C@@H](CS)C(=O)N[C@@H](CC(N)=O)C(=O)O; assay = LC-MS; test system = PBS; conditions = 0.1 mg/mL; endpoint = single disulfide form; value = 48%
SMILES = CCC(=O)N1CC=C(c2cc3c(Nc4cc5ncsc5cc4F)ncnc3s2)CC1; test system = human liver microsomes; conditions = 1 µM; endpoint = intrinsic clearance; value = 14 mL/min/g protein
SMILES = NS(=O)(=O)c1ccc(N2N=C(C(F)(F)F)CC2c2ccc(F)cc2F)cc1 (stereo not drawn); test system = beagle dog, plasma; conditions = oral, 1 mg/kg, single dose; endpoint = Cmax; value = 384 ng/mL
SMILES = CC[C@H](C)[C@H](NC(=O)CNC(=O)CNC(=O)c1ccc2c(c1)C(=O)OC21c2ccc(O)cc2Oc2cc(O)ccc21)C(=O)N[C@@H](Cc1ccc(O)cc1)C(=O)N[C@@H](C)C(=O)N(C)CC(=O)N1CCC[C@H]1C(=O)N(C)[C@@H](Cc1ccccc1)C(=O)N[C@@H](CCCCN)C(=O)N[C@@H](CCCCN)C(=O)N[C@@H](CCCCN)C(=O)O; assay = CE-LIF; test system = Baf/BCR-ABL cytosolic lysate (mouse); conditions = 60 min, Ala-sarcosine cleavage; endpoint = 5-residue fragment share; value = 17 ± 0.6%

A few entries again:
SMILES = NS(=O)(=O)c1ccc(N2N=C(C(F)(F)F)CC2c2ccc(F)cc2F)cc1 (stereo not drawn); test system = beagle dog, plasma; conditions = oral, 1 mg/kg, single dose; endpoint = Cmax; value = 384 ng/mL
